{"data": "Measurements of several laboratories", "note": "Each numbered part is a random draw from the data of one study; scales do not carry over between parts."}
{"data": "Block 1", "target": "POU, POU domain (Salpingoeca helianthica)", "method": "Spec-seq", "molecule type": "double-stranded DNA, one strand shown", "sample": "in vitro", "tested at": "not given", "setting": "whole probe, mean of replicates", "relative to": "not given", "reading": "lower = stronger binding", "constant ends, left off below": "GAGTCGTCTCGTCAGCACA … CCGTAGAGCACTCAGGTC", "Construct (chain)": "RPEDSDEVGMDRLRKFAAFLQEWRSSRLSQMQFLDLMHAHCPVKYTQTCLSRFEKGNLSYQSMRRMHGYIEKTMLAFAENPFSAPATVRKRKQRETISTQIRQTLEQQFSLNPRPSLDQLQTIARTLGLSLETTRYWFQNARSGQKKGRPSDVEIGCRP"}
{"Sequence": "TGCGTTT", "relative binding energy": "1.14 ln ratio"}
{"Sequence": "TGTTAAT", "relative binding energy": "0.0517 ln ratio"}
{"Sequence": "TGCTCGC", "relative binding energy": "1.65 ln ratio"}
{"Sequence": "TGCTGTA", "relative binding energy": "1.17 ln ratio"}
{"Sequence": "GAGTAAT", "relative binding energy": "0.7 ln ratio"}
{"data": "Block 2", "target": "RING finger protein unkempt homolog, zinc fingers 1-6, GST-SBP tag (UNK, Homo sapiens, UniProt Q9C0B0, residues 30-357)", "method": "RNA Bind-n-Seq", "molecule type": "RNA", "sample": "in vitro", "tested at": "not given", "setting": "RNA with constant flanks, human and mouse sites, ends assumed", "relative to": "input RNA pool", "reading": "higher = stronger binding", "constant ends, left off below": "GGGAGUUCUACAGUCCGACGAUC … CAACAGAGGAUUGAGCAUCA", "chain of UniProt Q9C0B0 (30-357, looked up)": "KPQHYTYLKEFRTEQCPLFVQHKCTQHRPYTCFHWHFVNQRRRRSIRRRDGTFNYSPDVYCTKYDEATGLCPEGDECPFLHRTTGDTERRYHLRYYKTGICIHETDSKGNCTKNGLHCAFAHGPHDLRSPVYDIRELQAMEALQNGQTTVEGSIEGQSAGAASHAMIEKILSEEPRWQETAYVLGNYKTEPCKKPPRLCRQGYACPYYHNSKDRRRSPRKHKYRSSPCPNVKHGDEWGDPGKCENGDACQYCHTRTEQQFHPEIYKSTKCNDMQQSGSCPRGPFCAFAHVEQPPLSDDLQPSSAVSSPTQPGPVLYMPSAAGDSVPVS"}
{"Sequence": "CUUCUCUAACUUUUUCAGUUCACAAUUUACUUGGUCCAGAUUUUCUAUUCUUUUUUUUUAACUAGUAAAUGAAAUUUACAUACUUCAUAAAAUUAUGAACAGAUAGCGCAUUGGGCUCUG", "bound/input enrichment [ratio]": 1.12}
{"Sequence": "UGGCACUUGUGUAAAACUGUCCCUGCAGAUUGAGCAGGAAGUAAAAACAAAUGGAAAUGCUUCGGAUAGUGGCAGGGGUGGGGGUUGCUAAGGAAAGGGUGGGAUGGGAGUGGGUAAAGA", "bound/input enrichment [ratio]": 0.638}
{"Sequence": "ACACGUGUGUGUAUCACCAGUGGGUCAACUGCUUGUCAUUCCUCCCGUGGCAGUUUGUGUAGACAAUCUUACUGAGCAAAAGGCAAUGAAAAGUCUUGGUUCCCACACUGCGAUAUAUUG", "bound/input enrichment [ratio]": 0.117}
{"Sequence": "CGUUUUUUAUUGGAAAUGAGCACACAUUUACACAGGAGACCAAAAUCCACUUGCUAUUUCAAUAGCCUGACUGUUUCUGAGCAGGUAGAGAAAUAAACAUGGAAAACAAAGACAGGGUGA", "bound/input enrichment [ratio]": 0.512}
{"Sequence": "AAUCAGGCAAAGAAAGGGGGUGUAAGUUGUGGGACCAGUUUUAGAGGGACAGUUGGACGGACUAGAGAUUACACUGUUUUACAUCCAUCUUGCUUGUCAGUUUGUAAUGUUACCAUACAG", "bound/input enrichment [ratio]": 1.07}
{"Sequence": "ACUUUACACUUUGUGCAAUGGCUUUCUCUUCAGAAUGACUUUGUGAAUGCACUUUGUGGCCUUUUGAGGGGGUAAGGGUCAGGAGAGAAUUCAUGUUAAUUUCUUUAACAUUGUUAUGUA", "bound/input enrichment [ratio]": 0.264}
{"Sequence": "UUCCCCCUACUGAGACAGUUCCUCAGGUCAAAAAAGAAAAACAUAGCACACAAGCUAAAAAUAGAGCAAAAAGGAAACCUCCAAAAGGAAUGUUUCUUUCUCAAGAAGAUGUGGAGGCUG", "bound/input enrichment [ratio]": 0.695}
{"Sequence": "ACCAUUGGAUUUAAUGUAGAGACGGUGACGUACAAAAACCUUAAAUUCCAAGUCUGGGAUUUAGGAGGACAGACAAGUAUCAGGCCAUACUGGAGAUGUUACUAUUCAAACACAGAUGCA", "bound/input enrichment [ratio]": 0.274}
{"data": "Block 3", "target": "Replicase polyprotein 1ab, main protease (rep, Severe acute respiratory syndrome coronavirus 2, UniProt P0DTD1)", "effect on": "enzyme activity", "action": "inhibitor", "tested at": "20 µM", "setting": "hit confirmation"}
{"Compound": "COC(=O)C1=C(C)NC(C)=C(C(=O)O[C@H]2CCN(Cc3ccccc3)C2)[C@H]1c1cccc([N+](=O)[O-])c1", "inhibition": "-5.1%"}
{"Compound": "CCc1ccc(/C=C/C(=O)Nc2ccc(C(C)=O)cc2)o1", "inhibition": "64.7%"}
{"Compound": "NCc1ccccc1CC(=O)N[C@@H]1C(=O)N2C(C(=O)O)=C(CSc3nnnn3CC(=O)O)CS[C@H]12", "inhibition": "40.6%"}
{"Compound": "CC1=C(C(=O)O)N2C(=O)[C@@H](NC(=O)[C@H](N)C3=CCC=CC3)C2SC1 (stereo partly drawn)", "inhibition": "-8.9%"}
{"data": "Block 4", "target": "Replicase polyprotein 1ab, nsp13 helicase (rep, Severe acute respiratory syndrome coronavirus 2, UniProt P0DTD1)", "action": "inhibitor", "tested at": "20 µM"}
{"Compound": "CN1C(C)(C)CCCC1(C)C", "inhibition [%]": 5.51}
{"Compound": "CCN(CC)CCCN(c1ccccc1)C1Cc2ccccc2C1", "inhibition [%]": -0.19}
{"Compound": "c1ccc2nc(N3CCNCC3)ccc2c1", "inhibition [%]": 1.85}
{"Compound": "COc1cc(NS(C)(=O)=O)ccc1Nc1c2ccccc2nc2ccccc12", "inhibition [%]": 32.3}
{"Compound": "O=C(O)c1ccc(NC(=O)[C@H](Cc2ccc(O)cc2)NC(=O)c2ccccc2)cc1", "inhibition [%]": 9.11}
{"Compound": "Cc1cc(N2CCOCC2)cc2[nH]c(-c3c(NC[C@@H](O)c4cccc(Cl)c4)cc[nH]c3=O)nc12", "inhibition [%]": 12.9}
{"Compound": "C=C[C@@H]1C[C@]1(NC(=O)[C@@H]1C[C@@H](Oc2ncc(OC)c3ccc(Cl)cc23)CN1C(=O)[C@@H](NC(=O)OC(C)(C)C)C(C)(C)C)C(=O)NS(=O)(=O)C1CC1", "inhibition [%]": 4.02}
{"Compound": "C1COC(NC(C2CC2)C2CC2)=N1", "inhibition [%]": 5.75}
{"Compound": "CC[C@@H](C)Nc1cc(C(=O)N[C@H]2C[C@H]3CC[C@@H](C2)N3c2ccc(C(=O)C3CC3)cn2)c(C)cc1C(N)=O", "inhibition [%]": 5.69}
{"Compound": "O=C(/C=C/c1cccc(S(=O)(=O)Nc2ccccc2)c1)NO", "inhibition [%]": 11.1}
{"Compound": "CCCCCCOc1cc2c(cc1N(C)c1ncc(C(=O)O)cn1)C(C)(C)CCC2(C)C", "inhibition [%]": 2.78}
{"Compound": "Cc1cccc(/C=N/Nc2cc(N3CCOCC3)nc(OCCc3ccccn3)n2)c1", "inhibition [%]": 3.6}
{"Compound": "CCC(CC)[C@H](NC(C)=O)[C@@H]1[C@H](O)[C@@H](C(=O)O)C[C@H]1NC(=N)N", "inhibition [%]": 2.76}
{"Compound": "C[C@]12CCC(=O)C=C1CC[C@@H]1[C@@H]2CC[C@@]2(C)[C@H]1CC[C@]2(O)C(=O)CO", "inhibition [%]": 6.56}
{"Compound": "CCN(CC)CCOc1ccc2c(c1)C(=O)c1cc(OCCN(CC)CC)ccc1-2", "inhibition [%]": 64}
{"Compound": "CCS(=O)(=O)N1CC(CC#N)(n2cc(-c3ncnc4[nH]ccc34)cn2)C1", "inhibition [%]": 8.76}
{"Compound": "O=C(O)C(O)c1ccccc1 (stereo not drawn)", "inhibition [%]": -1.12}
{"Compound": "C[C@H](Oc1ccc(S(C)(=O)=O)cc1C(=O)N1CCN(c2ncc(C(F)(F)F)cc2F)CC1)C(F)(F)F", "inhibition [%]": -1.09}
{"Compound": "OC[C@@H](O)[C@@H](O)[C@@H](O)CO", "inhibition [%]": -1.87}
{"Compound": "CC1(C)O[C@@H]2C[C@H]3[C@@H]4C[C@H](F)C5=CC(=O)C=C[C@]5(C)[C@H]4[C@@H](O)C[C@]3(C)[C@]2(C(=O)CO)O1", "inhibition [%]": 1.86}
{"Compound": "CNC(=O)Oc1ccccc1OC(C)C", "inhibition [%]": -2.35}
{"Compound": "Cc1cc(C(=O)O)sc1C(N)C(=O)O (stereo not drawn)", "inhibition [%]": 8.52}
{"Compound": "c1ccc(CCCN2CCN(CCOC(c3ccccc3)c3ccccc3)CC2)cc1", "inhibition [%]": 6.5}
{"Compound": "CNC(=O)c1ccc(Nc2ncc(C(F)(F)F)c(NCc3nccnc3N(C)S(C)(=O)=O)n2)cc1", "inhibition [%]": 5.5}
{"Compound": "COc1cc(/C=C(\\C#N)C(N)=O)cc(CSc2nc3ccccc3s2)c1O", "inhibition [%]": 5.58}
{"data": "Block 5", "target": "Interferon regulatory factor 3, full length, phosphomimetic (IRF3, Homo sapiens, UniProt Q14653, residues 1-427, S386D/S396D/S398D/S402D/T404D/S405D)", "method": "protein-binding microarray", "molecule type": "double-stranded DNA, one strand shown", "sample": "in vitro", "tested at": "2540 nM top", "setting": "60-bp whole probe", "with": "salmon DNA 0.4 mg/ml", "relative to": "random background probes", "reading": "higher = stronger binding", "constant ends, left off below": "GCCTAGCAC … GTCTTGATTCGCTTGACGCTGCTG", "Residues (chain)": "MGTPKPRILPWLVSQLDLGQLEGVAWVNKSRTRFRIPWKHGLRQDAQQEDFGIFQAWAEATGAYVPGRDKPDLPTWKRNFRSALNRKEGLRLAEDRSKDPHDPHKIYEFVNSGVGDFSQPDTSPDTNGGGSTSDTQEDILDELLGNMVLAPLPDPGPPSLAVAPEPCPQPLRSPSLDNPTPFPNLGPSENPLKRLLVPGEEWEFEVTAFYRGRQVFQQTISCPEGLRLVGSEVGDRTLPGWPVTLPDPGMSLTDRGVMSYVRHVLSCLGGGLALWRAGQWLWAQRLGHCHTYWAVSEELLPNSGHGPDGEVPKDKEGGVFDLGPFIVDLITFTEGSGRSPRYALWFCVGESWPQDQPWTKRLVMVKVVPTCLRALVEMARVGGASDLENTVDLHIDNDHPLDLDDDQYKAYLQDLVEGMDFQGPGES"}
{"Sequence": "TTACGTTTCGGGTATCGGTTAGTGCTA", "fitted relative affinity": "3.61 z-score"}
{"Sequence": "TTAGGACTGCTACTGCTTTCGTGCTAG", "fitted relative affinity": "-0.658 z-score"}
{"Sequence": "TCAATGCTGGCTTTTATACTGTGCTAG", "fitted relative affinity": "-0.65 z-score"}
{"Sequence": "TGGAATTTCCCTCTCCCCTCGTGCTAG", "fitted relative affinity": "3.63 z-score"}
{"Sequence": "TTAGAACTGAGTCTCTATTAGTGCTAG", "fitted relative affinity": "-0.456 z-score"}
{"Sequence": "GTAGGTTTCGGGACTGGGTTAGTGCTA", "fitted relative affinity": "4.4 z-score"}
{"Sequence": "TCACGAGTCCCTATCTCACTGTGCTAG", "fitted relative affinity": "0.231 z-score"}
{"Sequence": "GCCGGTATCGGTCTCGGGACGTGCTAG", "fitted relative affinity": "5 z-score"}
{"data": "Mixed results"}
{"SMILES": "Nc1ccc(S(=O)(=O)Nc2nccs2)cc1", "cell line": "HEK-293T/ACE2", "tested at": "10 µM", "time": "16 h", "relative to": "vehicle", "measurement": "viability", "result": "98.7%"}
